Measured values gathered from unrelated publications.
Compare with care: the assays were run in different laboratories. ± gives the spread as reported.
SULT2A1: Sulfotransferase 2A1 (SULT2A1, Homo sapiens, UniProt Q06520)
Chain of UniProt Q06520 (whole entry, looked up): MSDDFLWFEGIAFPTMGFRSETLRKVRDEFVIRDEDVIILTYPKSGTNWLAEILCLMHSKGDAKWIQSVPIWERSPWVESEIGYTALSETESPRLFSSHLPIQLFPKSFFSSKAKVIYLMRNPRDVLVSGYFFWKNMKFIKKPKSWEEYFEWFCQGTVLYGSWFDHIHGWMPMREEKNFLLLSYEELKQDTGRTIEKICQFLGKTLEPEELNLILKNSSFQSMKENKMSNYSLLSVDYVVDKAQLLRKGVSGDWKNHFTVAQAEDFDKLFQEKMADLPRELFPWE
Acy3: N-acyl-aromatic-L-amino acid amidohydrolase (carboxylate-forming) (Acy3, Mus musculus, UniProt Q91XE4)
Chain of UniProt Q91XE4 (whole entry, looked up): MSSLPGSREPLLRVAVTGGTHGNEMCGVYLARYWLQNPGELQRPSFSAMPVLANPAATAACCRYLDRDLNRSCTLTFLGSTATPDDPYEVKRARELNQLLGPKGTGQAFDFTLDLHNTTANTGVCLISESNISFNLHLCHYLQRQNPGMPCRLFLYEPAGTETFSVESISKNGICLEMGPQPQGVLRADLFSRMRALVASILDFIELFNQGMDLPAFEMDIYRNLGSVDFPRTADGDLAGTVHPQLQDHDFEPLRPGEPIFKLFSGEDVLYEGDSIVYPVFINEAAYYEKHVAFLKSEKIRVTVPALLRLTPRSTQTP
ESR2: Estrogen receptor beta (ESR2, Homo sapiens, UniProt Q92731)
Chain of UniProt Q92731 (whole entry, looked up): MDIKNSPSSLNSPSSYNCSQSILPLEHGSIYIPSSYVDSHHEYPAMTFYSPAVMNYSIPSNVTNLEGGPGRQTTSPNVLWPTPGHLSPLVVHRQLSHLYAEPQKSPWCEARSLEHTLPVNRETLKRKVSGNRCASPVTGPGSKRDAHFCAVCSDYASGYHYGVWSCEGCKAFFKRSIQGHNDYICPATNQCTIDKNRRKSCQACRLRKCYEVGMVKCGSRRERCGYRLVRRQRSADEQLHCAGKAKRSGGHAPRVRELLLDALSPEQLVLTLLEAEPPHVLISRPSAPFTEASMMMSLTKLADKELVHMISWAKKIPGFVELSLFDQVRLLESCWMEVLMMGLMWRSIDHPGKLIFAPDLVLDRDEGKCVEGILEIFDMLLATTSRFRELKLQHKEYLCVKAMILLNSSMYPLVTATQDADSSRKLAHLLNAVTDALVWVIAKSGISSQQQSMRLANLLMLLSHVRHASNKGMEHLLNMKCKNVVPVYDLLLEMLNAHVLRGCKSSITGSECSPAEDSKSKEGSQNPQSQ
Chain of UniProt P34969 (whole entry, looked up): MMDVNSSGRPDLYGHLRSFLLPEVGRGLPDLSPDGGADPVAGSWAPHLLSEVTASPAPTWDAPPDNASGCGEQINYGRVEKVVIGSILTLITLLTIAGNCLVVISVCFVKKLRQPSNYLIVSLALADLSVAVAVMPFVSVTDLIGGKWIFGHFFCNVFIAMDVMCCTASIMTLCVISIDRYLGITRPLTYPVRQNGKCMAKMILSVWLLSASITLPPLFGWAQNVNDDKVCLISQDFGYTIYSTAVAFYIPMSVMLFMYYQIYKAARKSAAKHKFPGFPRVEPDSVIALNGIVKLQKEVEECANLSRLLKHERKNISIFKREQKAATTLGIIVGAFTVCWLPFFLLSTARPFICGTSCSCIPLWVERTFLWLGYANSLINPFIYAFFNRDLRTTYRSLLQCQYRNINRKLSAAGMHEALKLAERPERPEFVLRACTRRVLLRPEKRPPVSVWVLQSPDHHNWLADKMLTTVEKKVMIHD
Chain of UniProt P09546 (whole entry, looked up): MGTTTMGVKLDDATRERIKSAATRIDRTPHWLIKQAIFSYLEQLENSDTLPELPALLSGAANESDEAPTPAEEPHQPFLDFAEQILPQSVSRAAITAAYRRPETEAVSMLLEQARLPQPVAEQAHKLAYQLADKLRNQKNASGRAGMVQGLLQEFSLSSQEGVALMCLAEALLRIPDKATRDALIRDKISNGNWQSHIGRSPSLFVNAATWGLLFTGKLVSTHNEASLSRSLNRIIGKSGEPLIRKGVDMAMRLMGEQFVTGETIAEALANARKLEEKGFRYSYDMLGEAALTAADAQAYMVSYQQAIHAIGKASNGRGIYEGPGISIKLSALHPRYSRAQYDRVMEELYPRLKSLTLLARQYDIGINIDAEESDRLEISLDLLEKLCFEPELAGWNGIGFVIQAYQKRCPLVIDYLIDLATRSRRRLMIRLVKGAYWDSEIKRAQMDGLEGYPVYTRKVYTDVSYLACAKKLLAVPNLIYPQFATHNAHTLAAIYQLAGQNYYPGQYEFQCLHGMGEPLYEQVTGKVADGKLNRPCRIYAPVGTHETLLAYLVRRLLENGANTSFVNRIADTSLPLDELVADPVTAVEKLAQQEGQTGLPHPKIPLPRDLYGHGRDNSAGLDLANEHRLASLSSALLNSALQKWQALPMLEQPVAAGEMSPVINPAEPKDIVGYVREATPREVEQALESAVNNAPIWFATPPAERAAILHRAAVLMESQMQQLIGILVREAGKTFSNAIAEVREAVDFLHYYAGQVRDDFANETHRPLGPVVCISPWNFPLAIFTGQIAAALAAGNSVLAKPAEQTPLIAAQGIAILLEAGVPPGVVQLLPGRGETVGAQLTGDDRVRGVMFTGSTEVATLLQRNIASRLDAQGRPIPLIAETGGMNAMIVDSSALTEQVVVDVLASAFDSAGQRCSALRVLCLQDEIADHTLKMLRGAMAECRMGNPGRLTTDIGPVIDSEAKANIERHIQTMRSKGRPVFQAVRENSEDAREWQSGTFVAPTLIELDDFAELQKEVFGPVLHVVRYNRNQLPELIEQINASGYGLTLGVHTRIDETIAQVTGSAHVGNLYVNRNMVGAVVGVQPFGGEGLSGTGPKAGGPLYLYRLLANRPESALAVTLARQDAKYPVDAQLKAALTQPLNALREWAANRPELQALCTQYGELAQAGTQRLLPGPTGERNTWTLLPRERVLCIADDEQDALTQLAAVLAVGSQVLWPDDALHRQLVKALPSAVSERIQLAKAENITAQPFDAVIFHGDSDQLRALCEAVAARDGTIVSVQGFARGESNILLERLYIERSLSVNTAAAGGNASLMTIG
Chain of UniProt P22309 (whole entry, looked up): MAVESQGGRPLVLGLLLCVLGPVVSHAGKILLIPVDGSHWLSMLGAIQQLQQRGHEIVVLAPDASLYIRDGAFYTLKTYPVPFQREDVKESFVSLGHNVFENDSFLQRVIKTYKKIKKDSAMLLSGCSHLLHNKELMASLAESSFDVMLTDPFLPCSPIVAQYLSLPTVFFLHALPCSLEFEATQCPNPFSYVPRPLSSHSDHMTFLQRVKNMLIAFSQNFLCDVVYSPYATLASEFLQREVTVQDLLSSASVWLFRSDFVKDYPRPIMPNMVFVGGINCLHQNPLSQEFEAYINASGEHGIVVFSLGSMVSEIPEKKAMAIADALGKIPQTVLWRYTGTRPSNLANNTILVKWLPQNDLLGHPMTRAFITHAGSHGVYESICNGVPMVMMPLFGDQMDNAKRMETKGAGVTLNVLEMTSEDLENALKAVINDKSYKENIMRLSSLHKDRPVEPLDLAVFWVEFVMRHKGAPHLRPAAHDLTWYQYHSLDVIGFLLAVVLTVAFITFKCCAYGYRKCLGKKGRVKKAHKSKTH
Chain of UniProt P28335 (whole entry, looked up): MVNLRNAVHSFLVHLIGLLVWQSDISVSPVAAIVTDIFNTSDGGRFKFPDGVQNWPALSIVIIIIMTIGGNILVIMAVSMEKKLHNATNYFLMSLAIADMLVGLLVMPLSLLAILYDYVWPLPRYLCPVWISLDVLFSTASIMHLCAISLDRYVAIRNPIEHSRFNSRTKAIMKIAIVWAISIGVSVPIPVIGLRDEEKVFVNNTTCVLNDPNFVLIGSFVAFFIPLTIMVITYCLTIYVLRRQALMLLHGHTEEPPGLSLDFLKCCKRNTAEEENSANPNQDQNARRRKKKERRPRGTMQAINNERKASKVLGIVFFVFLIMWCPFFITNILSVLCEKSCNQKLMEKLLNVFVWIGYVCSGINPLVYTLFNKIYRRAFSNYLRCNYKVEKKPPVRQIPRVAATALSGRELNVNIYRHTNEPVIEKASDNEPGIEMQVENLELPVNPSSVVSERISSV
Chain of UniProt Q9NQS5 (whole entry, looked up): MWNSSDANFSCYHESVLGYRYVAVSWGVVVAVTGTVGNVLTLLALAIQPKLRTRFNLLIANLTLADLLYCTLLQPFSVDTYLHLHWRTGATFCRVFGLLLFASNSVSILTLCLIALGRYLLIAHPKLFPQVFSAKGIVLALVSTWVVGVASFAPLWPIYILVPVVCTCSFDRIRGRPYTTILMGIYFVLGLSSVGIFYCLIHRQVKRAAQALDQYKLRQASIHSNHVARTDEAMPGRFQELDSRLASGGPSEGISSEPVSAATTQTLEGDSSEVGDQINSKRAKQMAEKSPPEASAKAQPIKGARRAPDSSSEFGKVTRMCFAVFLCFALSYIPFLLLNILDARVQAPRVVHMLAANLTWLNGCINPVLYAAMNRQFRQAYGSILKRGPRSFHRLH
Chain of UniProt Q7Z5P4 (whole entry, looked up): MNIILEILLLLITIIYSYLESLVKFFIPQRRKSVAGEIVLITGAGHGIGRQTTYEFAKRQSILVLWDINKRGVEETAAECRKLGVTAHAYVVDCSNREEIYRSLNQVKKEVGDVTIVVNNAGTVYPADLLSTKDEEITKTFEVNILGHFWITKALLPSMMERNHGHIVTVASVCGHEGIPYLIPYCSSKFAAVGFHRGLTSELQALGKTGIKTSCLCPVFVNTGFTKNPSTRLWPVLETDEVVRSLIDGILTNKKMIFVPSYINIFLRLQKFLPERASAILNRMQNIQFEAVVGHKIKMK

Structure (SMILES) | tested on | test | system | setting | scale | measurement | value
CNC(=O)[C@@]12C[C@@H]1[C@@H](n1cnc3c(NC)nc(C#C[c-]4cccc4)nc31)[C@H](O)[C@@H]2O.[Fe+2].c1cc[cH-]c1 | HTR7 (Homo sapiens, UniProt P34969) | radioligand binding (PDSP) | – | – | – | Ki | 0.898 µM
O=C(O)[C@@H]1CCC=N1 | putA (Escherichia coli, UniProt P09546) | product competitive inhibitor | – | pH 7.4, 20 °C, DL form, L-isomer concentration, with: CoQ1 co-substrate, proline varied | – | Ki | 640 ± 40 µM
Oc1c(Cl)cc(-c2ccccc2)c(F)c1Cl | SULT2A1 | substrate | – | pH 7.0, 37 °C, with: PAPS 200 µM | – | Ki | 259 ± 43.4 µM
CC(C)Cc1ccc(C(C)C(=O)O)cc1 (stereo not drawn) | Acy3 | – | – | – | – | Ki | 40 µM
Cc1nn(-c2cccc([N+](=O)[O-])c2)c(=O)c2nocc12 | NMDA receptor | binding, radioligand displacement | – | with: [3H]MK-801 | – | Ki | > 10 µM
O=C(O)CC[C@H](NC(=O)N[C@@H](CCCCNC(=O)[C@H](Cc1ccc2ccccc2c1)NC(=O)CCCCCNC(=O)CN1CCN(CC(=O)O)CCN(CC(=O)O)CCN(CC(=O)O)CC1)C(=O)O)C(=O)O [gallium-68 labelled] | – | PET/CT | mouse, 22Rv1 xenograft, tumour | intravenous, 3.7 MBq, 8 h | – | SUVmean | 0.15 ± 0.004 SUV
CCCCCCCCCNc1cc(=O)[nH]c(=O)[nH]1 | GPR84 (Homo sapiens, UniProt Q9NQS5) | cAMP level, agonist | human cells | – | – | EC50 | 0.0299 ± 0.01 µM
O=c1cc(-c2ccc(O)cc2)oc2cc(O[C@@H]3O[C@H](CO)[C@@H](O)[C@H](O)[C@H]3O)cc(O)c12 | ESR2 | array formation, agonist | GFP-ERβ PRL-HeLa | 1 h | – | EC50 | 2.47 µM
Oc1c(Cl)cc(-c2cccc(F)c2)cc1Cl | SULT2A1 | substrate | – | pH 7.0, 37 °C, with: PAPS 200 µM | – | Ki | 219 ± 70.1 µM
COc1cc(N2CCC(N3CCN(C)CC3)CC2)ccc1Nc1ncc(Cl)c(Nc2ccccc2P(C)(C)=O)n1 | ABCB1 (Homo sapiens, UniProt P08183) | inhibitor | – | – | – | Ki | 1.65 µM
COc1ccc(N2CCN(Cc3cn4c(-c5ccc(Br)cc5)nnc4s3)CC2)cc1 | FSP1 | coenzyme Q1 reduction, competitive inhibitor | – | pH 7.2, with: NADH varied, coenzyme Q1 | – | Ki | 0.315 ± 0.03 µM
CCn1cc(-c2cc(Cn3ccnc3)cc3c2CCN([C@H](c2cc(OC)ccn2)C2CC2)C3=O)c(C(F)(F)F)n1 | SW 1116 | cell growth, inhibitor | – | 120 h | – | EC50 | 13.9 µM
O=C(c1cc(Cc2n[nH]c(=O)c3ccccc23)ccc1F)N1CCN(C(=O)C2CC2)CC1 | UGT1A1 (Homo sapiens, UniProt P22309) | enzyme activity, inhibitor | – | – | – | Ki | 48.4 µM
CC(=O)N[C@@H](CS)C(=O)O | Acy3 | – | – | – | – | Ki | 3000 µM
Cc1nc2sccn2c(=O)c1CCN1CCC(=C(c2ccc(F)cc2)c2ccc(F)cc2)CC1 | HTR2C (Homo sapiens, UniProt P28335) | – | – | – | – | Ki | 0.0048 µM
Cc1nn(-c2ccc([N+](=O)[O-])cc2)c(=O)c2nocc12 | NMDA receptor | binding, radioligand displacement | – | with: [3H]MK-801 | – | Ki | > 10 µM
COc1ccc(-c2coc3cc(O)ccc3c2=O)cc1 | ESR2 | array formation, agonist | GFP-ERβ PRL-HeLa | 1 h | – | EC50 | 2.21 µM
Cc1ccc(-n2nc(C)c3conc3c2=O)cc1 | NMDA receptor | binding, radioligand displacement | – | with: [3H]MK-801 | – | Ki | > 10 µM
Cn1cc(-c2ccc(-c3cncc(Cl)c3N3CCC4(CCNC4=O)CC3)cc2)cn1 | COLO 205 | gene expression, microarray, measured: ILF3 mRNA | – | concentration not given, 6 h | reference: untreated cells | log2 fold change | -3.1
Cc1nn(-c2ccc(F)cc2)c(=O)c2nocc12 | NMDA receptor | binding, radioligand displacement | – | with: [3H]MK-801 | – | Ki | > 10 µM
Cn1cc2c(C(=O)O)ccc(NS(=O)(=O)c3ccc(OCC4CCC4)c(Cl)c3)c2n1 | 17-beta-hydroxysteroid dehydrogenase 13, isoform D (Homo sapiens, UniProt Q7Z5P4) | – | – | – | – | Ki | 0.012 µM

Repeated from above:
Structure (SMILES) | tested on | test | system | setting | scale | measurement | value
O=C(O)[C@@H]1CCC=N1 | putA (Escherichia coli, UniProt P09546) | product competitive inhibitor | – | pH 7.4, 20 °C, DL form, L-isomer concentration, with: CoQ1 co-substrate, proline varied | – | Ki | 640 ± 40 µM
O=C(O)CC[C@H](NC(=O)N[C@@H](CCCCNC(=O)[C@H](Cc1ccc2ccccc2c1)NC(=O)CCCCCNC(=O)CN1CCN(CC(=O)O)CCN(CC(=O)O)CCN(CC(=O)O)CC1)C(=O)O)C(=O)O [gallium-68 labelled] | – | PET/CT | mouse, 22Rv1 xenograft, tumour | intravenous, 3.7 MBq, 8 h | – | SUVmean | 0.15 ± 0.004 SUV
